Literature values as cited in several papers.
Protocols differ between the studies behind these lines. In brackets after ≈: the same amount, converted by molar mass.

`CC[C@H](C)[C@H](NC(=O)[C@H](CCCCN)NC(=O)[C@H](CCC(N)=O)NC(=O)[C@H](C)NC(=O)[C@H](Cc1ccc(O)cc1)NC(=O)[C@H](CCC(=O)O)NC(=O)[C@H](CCCCN)NC(=O)[C@H](C)NC(=O)[C@H](CC(C)C)NC(=O)[C@H](CCCNC(=N)N)NC(=O)[C@H](CC(C)C)NC(=O)CNC(=O)[C@H](CCCCN)NC(=O)[C@H](C)NC(=O)[C@H](CCCNC(=N)N)NC(=O)[C@H](CC(C)C)NC(=O)[C@H](CCCCN)NC(=O)[C@H](CCC(N)=O)NC(=O)[C@H](C)NC(=O)[C@H](CC(C)C)NC(=O)[C@H](CCCCN)NC(=O)[C@H](CO)NC(=O)[C@H](CCCCN)NC(=O)[C@@H](N)Cc1c[nH]c2ccccc12)C(=O)N[C@@H](CC(C)C)C(=O)N[C@@H](CC(N)=O)C(=O)O` gave an MIC of 2 µM (≈ 6.11 µg/mL) (Escherichia coli).
`CCCCCC(=O)NC(C(=O)NCc1ccc(NC(=N)N)cc1)c1ccc(OCc2ccccc2)cc1` (stereo not shown) gave an EC50 of 890 nM (dengue virus 2; viral replication; New Guinea C).
With `O=C(NCCCN1CCCC2=CC3CC(CN4CCCCC34)C21)c1ccc(OC(F)(F)F)cc1` (stereo not shown) the IC50 was > 40000 nM (HIV-1 NL4-3 Nanoluc; viral replication; MT-4).
The MIC of `CC[C@H](C)[C@H](NC(=O)[C@H](CCCCN)NC(=O)[C@H](CCCNC(=N)N)NC(=O)[C@H](CCCCN)NC(=O)[C@H](CC(C)C)NC(=O)[C@H](Cc1ccccc1)NC(=O)[C@H](CCC(=O)O)NC(=O)[C@H](CCCCN)NC(=O)[C@@H](NC(=O)[C@@H](NC(=O)[C@H](CCC(=O)O)NC(=O)[C@H](C)NC(=O)CNC(=O)[C@@H](N)CCCNC(=N)N)[C@@H](C)O)C(C)C)C(=O)N[C@@H](CCCNC(=N)N)C(=O)N[C@@H](CCC(=O)O)C(=O)N[C@@H](CCCNC(=N)N)C(=O)NCC(=O)N[C@H](C(=O)N[C@@H](CCCCN)C(=O)N[C@@H](C)C(=O)N[C@H](C(=O)N[C@H](C(=O)N[C@@H](C)C(=O)N[C@@H](Cc1c[nH]c2ccccc12)C(=O)O)[C@@H](C)CC)C(C)C)[C@@H](C)O` is reported as 64 µM (≈ 188 µg/mL) (Pseudomonas aeruginosa).
For `CCCCCCCCCC(=O)CC(=O)NC1CCCCC1=O` (stereo not shown), the inhibition was 35% (Pseudomonas aeruginosa; pyocyanin production; PAO-JP2; 50 µM).
`CCC(=O)OC1C(=O)C2(C)C(O)CC3OCC3(OC(C)=O)C2C(OC(=O)c2cccc(OC(F)F)c2)C2(O)CC(OC(=O)C(O)C(C=C(C)C)NC(=O)OC(C)(C)C)C(C)=C1C2(C)C` (stereo not shown) has an IC50 of 0.6 nM (MCF7; cytotoxicity).
The MBEC of `Oc1c(Br)cc(Br)c2nc3ccccc3nc12` is reported as 100 µM (Staphylococcus aureus; biofilm eradication; MRSA).
`Cc1ccc(NC2CNC2)cc1C(=O)N[C@H](C)c1cccc(-c2ccc(CN3CCCC3)s2)c1` gave an EC50 of 1200 nM (SARS-CoV-2; viral replication; A549).
`COC(=O)OC1C(=O)C2(C)C(O)CC3OCC3(OC(C)=O)C2C(OC(=O)c2cccc(OC(F)F)c2)C2(O)CC(OC(=O)C(O)C(C=C(C)C)NC(=O)OC(C)(C)C)C(C)=C1C2(C)C` (stereo not shown) gave an IC50 of 0.67 nM (LCC6-WT; cytotoxicity).
`CC(=O)c1ccc2c(c1)c(=O)c(C(=O)NCCOCCO)cn2Cc1ccc(Br)cc1` has an EC50 of 7000 nM (Trypanosoma brucei brucei; parasite growth).

A few entries again:
`COC(=O)OC1C(=O)C2(C)C(O)CC3OCC3(OC(C)=O)C2C(OC(=O)c2cccc(OC(F)F)c2)C2(O)CC(OC(=O)C(O)C(C=C(C)C)NC(=O)OC(C)(C)C)C(C)=C1C2(C)C` (stereo not shown) gave an IC50 of 0.67 nM (LCC6-WT; cytotoxicity).
